Measured values collected from several papers.
± marks the error that the study gave.

Compound | tested on | assay | test system | conditions | how to read | endpoint | value
Cc1ccc(C(=O)N/N=C/c2cc(Br)ccc2OCC(=O)O)cc1 | – | Racine scale 0-5 | male mice, pilocarpine-induced seizures | oral, 20 mg/kg, 2 h after pilocarpine, unit not given, with: pilocarpine 300 mg/kg i.p. | higher = more severe | seizure severity | 1.7 ± 0.48
CCCCn1ccn2c(-c3ccc(Oc4ccnc(C)c4)c(F)c3)c(C)nc2c1=O | – | – | rat liver microsomes | 5 µM, 15 min | – | metabolized fraction | 37%
O=C1Nc2ccc(S(=O)(=O)Nc3ccccc3)cc2C1=C1CCCC1 | CDK2 (Homo sapiens, UniProt P24941) | kinase activity, inhibitor, kinase panel profiling | – | concentration not given | – | inhibition | 32%
CCCCn1ccn2c(-c3ccc4[nH]ccc4c3)c(C)nc2c1=O | – | – | male Sprague Dawley rat, brain | oral, 10 mg/kg, 1 h | – | brain concentration | not detected
O=C(O)COc1ccc(Br)cc1C=NNC(=O)Cc1ccccc1 (mixture of isomers) | – | Racine scale 0-5 | male mice, pilocarpine-induced seizures | oral, 20 mg/kg, 1 h after pilocarpine, unit not given, with: pilocarpine 300 mg/kg i.p. | higher = more severe | seizure severity | 2.2 ± 0.42
O=C[C@H](C[C@@H]1CCNC1=O)NC(=O)[C@H](CC1CCCCC1)NC(=O)OCc1cccc(Cl)c1 | feline coronavirus | – | CRFK, FIPV-1146 | – | relative to: CC50 over EC50 | therapeutic index | 1280
FC(F)(F)c1c(-c2ccc3c(ccn3-c3cccnc3)c2)ccn2c(CC3CC3)nnc12 | – | – | rat liver microsomes | 5 µM, 15 min | – | compound metabolized | 89%
Clc1nnc(N/N=C/c2ccc(Br)cc2)c2ccccc12 | murine peritoneal macrophages | – | – | – | relative to: CC50 macrophages over IC50 β-hematin | selectivity index | > 10.6
CC[C@H](C)[C@@H]1NC(=O)[C@H](C(C)C)NC(=O)[C@H](Cc2ccccc2)NC(=O)[C@H](Cc2ccccc2)NC(=O)[C@@H]2CCCN2C(=O)[C@@H]2CCCN2C(=O)[C@H]([C@@H](C)CC)NC(=O)[C@H](CC(C)C)NC(=O)[C@H](CCSC)NC1=O | MCF7 | LDH release | – | 200 µg/mL, 48 h | – | cytotoxicity | 8%
CCCCCC(=O)OCn1cc(F)c(=O)[nH]c1=O | Caco-2 monolayer | apical to basolateral, Transwell | – | 120 min | relative to: compound over 5-fluorouracil | permeability ratio | 6.7 fold
FC(F)(F)c1c(-c2ccc(NC3CCOCC3)c(Cl)c2)ccn2c(CC3CC3)nnc12 | – | – | rat liver microsomes | 5 µM, 15 min | – | compound metabolized | 73%
CC(C)C[C@H](NC(=O)OCc1ccccc1)C(=O)N[C@@H](C[C@@H]1CCNC1=O)C(O)S(=O)(=O)O (some centres unmarked) | feline coronavirus | – | CRFK, FIPV-1146 | – | relative to: CC50 over EC50 | therapeutic index | > 3000
Cc1ccc(NC(=O)Nc2ccnc(-c3cccnc3)n2)cc1 | MRC5 | cell growth or viability | – | – | – | EC50 | 12 µM
O=C[C@H](C[C@@H]1CCNC1=O)NC(=O)[C@H](CC1CCCCC1)NC(=O)OCc1ccccc1 | feline coronavirus | – | CRFK, FIPV-1146 | – | relative to: CC50 over EC50 | therapeutic index | > 2140
CC[C@H](C)[C@@H]1NC(=O)[C@H](CC(C)C)NC(=O)[C@H](Cc2ccccc2)NC(=O)[C@H](Cc2ccccc2)NC(=O)[C@@H]2CCCN2C(=O)[C@@H]2CCCN2C(=O)[C@H](C(C)C)NC(=O)[C@H](CC(C)C)NC(=O)[C@H]([C@@H](C)CC)NC1=O | A-375 | LDH release | – | 125 µM, 48 h | – | cytotoxicity | 10%
Cc1nc(C#N)cnc1Cl | Cellular tumor antigen p53, DNA-binding domain (TP53, Homo sapiens, UniProt P04637, M133L/N239Y/N268D/V203A/Y220C) | differential scanning fluorimetry | – | 1000 µM, 30 min | – | ΔTm | 1.83 °C
O=C(N[C@@H](CC1CCCCC1)C(=O)N[C@@H](C[C@@H]1CCNC1=O)C(=O)C(=O)NC1CC1)OCc1cccc(Cl)c1 | feline coronavirus | – | CRFK, FIPV-1146 | – | relative to: CC50 over EC50 | therapeutic index | > 273
COc1ccc(CNc2ccc(-c3ccn4c(CC5CC5)nnc4c3C(F)(F)F)cc2F)cn1 | – | – | rat Sprague Dawley male, brain | subcutaneous, 10 mg/kg, 4 h | – | brain concentration | 307 ng/g
CC(C)C[C@H](NC(=O)OCc1ccccc1)C(=O)N[C@@H](C[C@@H]1CCNC1=O)C(=O)C(=O)NC1CCCCC1 | CRFK | cell growth or viability | – | 36 h | – | CC50 | > 150 µM
NCCCN1CC(=O)N(CC(c2ccccc2)c2ccccc2)CC(=O)N(CCCN)CC(=O)N(CC(c2ccccc2)c2ccccc2)CC(=O)N(CCCN)CC(=O)N(CC(c2ccccc2)c2ccccc2)CC1=O | – | X-ray reflectivity | DPPG monolayer headgroups | – | – | extra electrons per lipid | 82 ± 5

A few entries again:
Compound | tested on | assay | test system | conditions | how to read | endpoint | value
CCCCn1ccn2c(-c3ccc(Oc4ccnc(C)c4)c(F)c3)c(C)nc2c1=O | – | – | rat liver microsomes | 5 µM, 15 min | – | metabolized fraction | 37%
O=C1Nc2ccc(S(=O)(=O)Nc3ccccc3)cc2C1=C1CCCC1 | CDK2 (Homo sapiens, UniProt P24941) | kinase activity, inhibitor, kinase panel profiling | – | concentration not given | – | inhibition | 32%
